Measurements pooled from the literature.
Protocols differ between the studies behind these lines. ± gives the spread as reported.
Target: Mu-type opioid receptor (OPRM1, Homo sapiens, UniProt P35372)
UniProt P35372, sequence (whole entry, looked up): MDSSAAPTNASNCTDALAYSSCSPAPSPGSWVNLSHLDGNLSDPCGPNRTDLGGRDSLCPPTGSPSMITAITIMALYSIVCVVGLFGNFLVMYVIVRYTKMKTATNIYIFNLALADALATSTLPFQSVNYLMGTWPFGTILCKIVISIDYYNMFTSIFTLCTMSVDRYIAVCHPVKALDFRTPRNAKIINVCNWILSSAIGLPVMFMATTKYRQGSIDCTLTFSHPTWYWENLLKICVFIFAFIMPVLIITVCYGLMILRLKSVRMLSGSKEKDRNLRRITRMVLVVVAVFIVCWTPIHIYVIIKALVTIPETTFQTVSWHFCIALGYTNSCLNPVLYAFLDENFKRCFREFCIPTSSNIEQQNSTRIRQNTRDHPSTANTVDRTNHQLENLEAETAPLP

Structure (SMILES) | test | test system | setting | endpoint | result
COc1cc2c(cc1O)C(CCc1ccc(Cl)cc1)N(C)CC2 (centres unmarked) | cell-free assay, radioligand | – | – | Ki | 66 nM
O=C(Cc1ccc(Cl)c(Cl)c1)N1CCNC2COCC(N3CCCC3)C21 (centres unmarked) | binding, radioligand displacement | CHO cell membranes | with: [3H]DAMGO | Ki | > 10000 nM
O=C(O)CCn1c(=O)oc2cc(Cl)c(Cl)cc21 | antagonist | – | median value | IC50 | > 100000 nM
COc1cc2c(cc1-n1ccnc1)C[C@H]1[C@H]3CCCC[C@@]23CCN1C | ligand displacement, radioligand | – | – | IC50 | 2300 nM
CN(C)[C@H](CNC(=O)/C=C/c1cccc2ccccc12)Cc1ccc(O)cc1 | receptor activation, agonist | – | – | EC50 | 18 ± 2 nM
CN1CC[C@]23c4c5ccc(O)c4C[C@H]2[C@@H](O)C=C[C@H]3[C@H]1C5 | – | cell-based | – | IC50 | 7.4 nM
COc1cc2c(cc1NC(=O)c1cncn1C)C[C@H]1[C@H]3CCCC[C@@]23CCN1C | ligand displacement, radioligand | – | – | IC50 | > 30000 nM
CCCCCCCCCCCCCCCCCC(=O)NC[C@H]1CC[C@H](C(=O)N[C@@H](CCC(=O)NCCCOCCOCCOCCCNC(=O)COCC(=O)N[C@@H](Cc2ccc(O)cc2)C(=O)NC(C)(Cc2ccccc2)C(=O)N[C@@H](CC(C)C)C(=O)N[C@@H](CCCC)C(=O)N[C@@H](CCCNC(=N)N)C(=O)N2CCC[C@H]2C(=O)N[C@@H](CCCNC(=N)NC)C(=O)N[C@@H](CC(N)=O)C(N)=O)C(=O)O)CC1 (some centres unmarked) | β-arrestin recruitment, antagonist | – | with: 1 µM Met-enkephalin | IC50 | 1180 nM

For quick reference, copied from above:
Structure (SMILES) | test | test system | setting | endpoint | result
CN(C)[C@H](CNC(=O)/C=C/c1cccc2ccccc12)Cc1ccc(O)cc1 | receptor activation, agonist | – | – | EC50 | 18 ± 2 nM
